# Assay results from different studies.
# By UniProt entry, the sequences of proteins in these tests, tags left out.
# UniProt Q9NV35, whole entry: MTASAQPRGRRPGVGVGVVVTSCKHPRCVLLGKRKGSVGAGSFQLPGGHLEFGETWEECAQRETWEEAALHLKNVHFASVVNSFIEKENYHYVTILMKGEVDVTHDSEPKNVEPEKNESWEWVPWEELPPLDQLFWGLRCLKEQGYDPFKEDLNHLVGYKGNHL
# UniProt Q13976, whole entry: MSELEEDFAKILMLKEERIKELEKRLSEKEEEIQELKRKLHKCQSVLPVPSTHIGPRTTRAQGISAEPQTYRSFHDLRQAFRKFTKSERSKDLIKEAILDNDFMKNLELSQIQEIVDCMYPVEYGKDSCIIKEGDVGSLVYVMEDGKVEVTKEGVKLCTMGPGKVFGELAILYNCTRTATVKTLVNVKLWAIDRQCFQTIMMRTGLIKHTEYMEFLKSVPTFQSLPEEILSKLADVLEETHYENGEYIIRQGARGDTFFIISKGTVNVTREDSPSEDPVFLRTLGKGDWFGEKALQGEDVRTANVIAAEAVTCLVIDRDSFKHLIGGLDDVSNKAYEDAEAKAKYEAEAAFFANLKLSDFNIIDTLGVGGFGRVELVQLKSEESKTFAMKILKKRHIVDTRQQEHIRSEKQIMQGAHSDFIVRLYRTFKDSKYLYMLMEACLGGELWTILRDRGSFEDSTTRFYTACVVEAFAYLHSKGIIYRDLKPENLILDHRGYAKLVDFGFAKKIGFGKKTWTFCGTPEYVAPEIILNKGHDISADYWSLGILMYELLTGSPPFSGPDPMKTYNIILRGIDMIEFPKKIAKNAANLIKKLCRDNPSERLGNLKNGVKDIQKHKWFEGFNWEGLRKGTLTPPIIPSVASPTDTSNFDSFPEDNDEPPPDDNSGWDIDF
# Protocols differ between the studies behind these lines. ± gives the spread as reported.
# NUDT15: Nucleotide triphosphate diphosphatase NUDT15 (NUDT15, Homo sapiens, UniProt Q9NV35)
SMILES,target or system,test,system,conditions,endpoint,result
CN(C)S(=O)(=O)c1ccc(NCCCCN2CCC(Nc3nc4ccccc4n3Cc3ccc(F)cc3)CC2)c2nonc12,,,,,emission wavelength,582 nm
CC[C@H](C)[C@H](NC(=O)[C@H](C)NC(=O)[C@H](CCC(=O)O)NC(=O)[C@H](CCC(=O)O)NC(=O)[C@H](CC(C)C)NC(=O)[C@H](CCCCN)NC(=O)[C@H](CCCCN)NC(=O)[C@H](CCSC)NC(=O)[C@H](CCC(=O)O)NC(=O)[C@H](Cc1ccc(O)cc1)NC(=O)[C@H](CCC(=O)O)NC(=O)[C@H](CC(C)C)NC(=O)[C@H](CC(=O)O)NC(=O)[C@H](CC(C)C)NC(=O)[C@H](Cc1ccccc1)NC(=O)[C@@H](NC(=O)[C@@H](NC(=O)[C@H](CC(N)=O)NC(=O)[C@@H](NC(=O)[C@H](CCC(N)=O)NC(=O)[C@H](CC(=O)O)NC(=O)[C@H](CC(C)C)NC(=O)[C@@H](N)CO)[C@@H](C)CC)C(C)C)[C@@H](C)O)C(=O)N[C@@H](CCCCN)C(=O)N[C@@H](CCCCN)C(=O)N[C@@H](CC(C)C)C(=O)N[C@@H](CCC(=O)O)C(=O)N[C@@H](CCC(=O)O)C(=O)N[C@H](C(=O)N[C@@H](Cc1ccc(O)cc1)C(=O)N[C@H](C(=O)N[C@@H](CC(=O)O)C(=O)N[C@@H](CC(C)C)C(=O)N[C@@H](CCCCN)C(=O)N[C@@H](CCC(=O)O)C(=O)N[C@@H](CC(C)C)C(=O)O)[C@@H](C)CC)[C@@H](C)O,SARS-CoV-2 EG.5.1 pseudovirus,"pseudovirus infection, inhibitor, luciferase",Caco-2,24 h,IC50,335 nM
O=C(c1ccccc1Br)N1CCN(S(=O)(=O)c2ccc3[nH]c(=O)oc3c2)CC1,NUDT15,"enzyme activity, inhibitor, malachite green",,added: dGTP,IC50,174 nM
COc1ccc(S(=O)(=O)Nc2cccc(C(=O)NC3CCN(c4ncnc5[nH]cnc45)CC3)c2)cc1,SARS-CoV-2,viral replication,Wuhan-Hu-1,,EC50,1760 nM
CCCN(C)Cc1onc(-c2cccc(Cl)c2)c1-c1ccnc(N[C@@H]2CCN(C(=O)c3ccn(C)n3)C2)n1,"PRKG1 (Homo sapiens, UniProt Q13976)","kinase activity, inhibitor, IMAP",,"10 µM, added: FAM-IP3R peptide",inhibition,12.2 ± 0.8%
Cc1cc(SCc2sc(-c3ccc(C(=O)N4CCN(C)CC4)cc3)nc2C)ccc1OCC(=O)O,HEK293T,,,18 h,CC50,not toxic
CN(C)S(=O)(=O)c1ccc(NCCN2CCC(Nc3nc4ccccc4n3Cc3ccc(F)cc3)CC2)c2nonc12,,,,,emission wavelength,581 nm
O=C(c1ccc2occc2c1)N1CCN(S(=O)(=O)c2ccc3[nH]c(=O)oc3c2)CC1,NUDT15,"enzyme activity, inhibitor, malachite green",,added: dGTP,IC50,77 nM

# Excerpt of the above:
SMILES,target or system,test,system,conditions,endpoint,result
Cc1cc(SCc2sc(-c3ccc(C(=O)N4CCN(C)CC4)cc3)nc2C)ccc1OCC(=O)O,HEK293T,,,18 h,CC50,not toxic
